Published values collected from several papers.
Each line is one published result; not all experiments were run side by side. Values joined by “and” are separate records of one study, mostly repeats; a detail may differ. ± marks the error that the study gave.
GLP1R: Glucagon-like peptide 1 receptor (GLP1R, Homo sapiens, UniProt P43220)
PIP4K2C: Phosphatidylinositol 5-phosphate 4-kinase type-2 gamma (PIP4K2C, Homo sapiens, UniProt Q8TBX8)
UniProt O76090, sequence (whole entry, unmodified, looked up): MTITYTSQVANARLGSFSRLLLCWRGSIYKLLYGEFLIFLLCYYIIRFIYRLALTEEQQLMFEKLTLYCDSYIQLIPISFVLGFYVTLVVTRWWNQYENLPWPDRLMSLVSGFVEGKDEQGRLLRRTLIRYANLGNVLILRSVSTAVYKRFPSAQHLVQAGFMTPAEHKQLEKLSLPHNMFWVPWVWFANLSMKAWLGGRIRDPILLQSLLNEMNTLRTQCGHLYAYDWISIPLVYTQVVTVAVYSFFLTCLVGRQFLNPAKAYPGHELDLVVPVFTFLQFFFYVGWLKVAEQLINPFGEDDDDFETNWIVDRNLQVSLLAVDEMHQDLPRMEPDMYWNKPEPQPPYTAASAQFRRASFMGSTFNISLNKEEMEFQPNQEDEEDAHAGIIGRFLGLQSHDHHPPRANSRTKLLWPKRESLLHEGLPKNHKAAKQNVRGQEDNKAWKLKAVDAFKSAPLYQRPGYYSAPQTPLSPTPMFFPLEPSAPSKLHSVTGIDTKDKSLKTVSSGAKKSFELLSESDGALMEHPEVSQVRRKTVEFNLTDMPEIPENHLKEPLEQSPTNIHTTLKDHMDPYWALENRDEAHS
UniProt Q16774, sequence (whole entry, unmodified, looked up): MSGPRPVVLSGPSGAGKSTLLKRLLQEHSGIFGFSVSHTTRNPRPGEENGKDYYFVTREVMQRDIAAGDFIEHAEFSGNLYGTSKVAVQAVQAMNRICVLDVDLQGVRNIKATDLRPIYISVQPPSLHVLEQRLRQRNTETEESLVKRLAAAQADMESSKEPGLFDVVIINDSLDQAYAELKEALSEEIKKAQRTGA
UniProt Q8TBX8, sequence (whole entry, looked up): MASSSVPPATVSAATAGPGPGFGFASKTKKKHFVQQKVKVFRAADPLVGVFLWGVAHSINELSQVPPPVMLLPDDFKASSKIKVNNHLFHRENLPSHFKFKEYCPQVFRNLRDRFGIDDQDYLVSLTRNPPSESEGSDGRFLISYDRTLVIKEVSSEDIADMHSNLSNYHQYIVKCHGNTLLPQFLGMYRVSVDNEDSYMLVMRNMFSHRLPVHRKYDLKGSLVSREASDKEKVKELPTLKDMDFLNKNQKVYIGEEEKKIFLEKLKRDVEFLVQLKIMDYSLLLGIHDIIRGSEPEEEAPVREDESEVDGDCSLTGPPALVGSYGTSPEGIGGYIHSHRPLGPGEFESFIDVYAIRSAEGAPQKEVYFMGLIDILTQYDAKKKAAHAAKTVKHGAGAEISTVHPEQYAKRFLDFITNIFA
UniProt Q86SP6, sequence (whole entry, looked up): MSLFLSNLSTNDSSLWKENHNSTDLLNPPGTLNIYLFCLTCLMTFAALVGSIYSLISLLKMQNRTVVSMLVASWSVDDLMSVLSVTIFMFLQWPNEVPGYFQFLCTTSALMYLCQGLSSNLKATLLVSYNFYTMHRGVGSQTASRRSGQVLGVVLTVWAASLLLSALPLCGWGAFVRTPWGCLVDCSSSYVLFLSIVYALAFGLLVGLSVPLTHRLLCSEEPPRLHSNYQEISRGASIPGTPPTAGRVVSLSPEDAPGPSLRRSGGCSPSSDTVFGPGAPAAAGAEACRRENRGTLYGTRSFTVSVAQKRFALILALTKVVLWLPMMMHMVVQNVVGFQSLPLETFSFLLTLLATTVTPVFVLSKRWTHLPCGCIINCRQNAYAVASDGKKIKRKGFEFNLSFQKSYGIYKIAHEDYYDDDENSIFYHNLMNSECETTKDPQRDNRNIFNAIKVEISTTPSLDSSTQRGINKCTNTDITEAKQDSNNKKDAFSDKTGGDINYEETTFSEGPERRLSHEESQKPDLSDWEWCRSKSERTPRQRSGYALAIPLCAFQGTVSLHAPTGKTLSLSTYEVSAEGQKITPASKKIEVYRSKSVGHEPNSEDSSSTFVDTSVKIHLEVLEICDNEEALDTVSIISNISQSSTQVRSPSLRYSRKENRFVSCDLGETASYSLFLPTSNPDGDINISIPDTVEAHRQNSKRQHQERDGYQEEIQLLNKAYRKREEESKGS
UniProt P31941, sequence (whole entry, looked up): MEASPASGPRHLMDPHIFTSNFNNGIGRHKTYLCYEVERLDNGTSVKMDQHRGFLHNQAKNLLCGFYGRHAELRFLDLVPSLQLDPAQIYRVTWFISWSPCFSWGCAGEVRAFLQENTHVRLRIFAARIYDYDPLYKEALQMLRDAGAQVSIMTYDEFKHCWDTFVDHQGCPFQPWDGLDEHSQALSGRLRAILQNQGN
UniProt P05067, sequence (whole entry, looked up): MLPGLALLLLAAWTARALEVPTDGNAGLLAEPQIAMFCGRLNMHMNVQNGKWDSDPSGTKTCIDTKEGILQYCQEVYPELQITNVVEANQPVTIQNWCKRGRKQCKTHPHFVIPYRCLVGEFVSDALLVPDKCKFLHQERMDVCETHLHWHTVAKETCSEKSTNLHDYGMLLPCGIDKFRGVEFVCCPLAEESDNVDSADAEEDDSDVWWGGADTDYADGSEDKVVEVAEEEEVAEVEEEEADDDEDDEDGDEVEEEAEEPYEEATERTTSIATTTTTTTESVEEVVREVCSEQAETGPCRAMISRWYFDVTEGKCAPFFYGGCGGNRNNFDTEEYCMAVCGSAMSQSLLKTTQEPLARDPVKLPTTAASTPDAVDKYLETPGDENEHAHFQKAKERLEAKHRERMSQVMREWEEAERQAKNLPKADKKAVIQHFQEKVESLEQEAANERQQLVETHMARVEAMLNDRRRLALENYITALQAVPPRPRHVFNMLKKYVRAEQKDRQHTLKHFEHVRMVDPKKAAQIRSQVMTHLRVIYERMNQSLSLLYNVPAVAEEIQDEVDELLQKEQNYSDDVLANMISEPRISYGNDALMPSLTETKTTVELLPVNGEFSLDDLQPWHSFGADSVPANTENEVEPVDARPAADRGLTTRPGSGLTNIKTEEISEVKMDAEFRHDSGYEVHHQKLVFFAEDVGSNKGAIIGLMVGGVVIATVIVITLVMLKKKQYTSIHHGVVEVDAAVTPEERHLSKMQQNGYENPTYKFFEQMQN
UniProt P11388, sequence (whole entry, looked up): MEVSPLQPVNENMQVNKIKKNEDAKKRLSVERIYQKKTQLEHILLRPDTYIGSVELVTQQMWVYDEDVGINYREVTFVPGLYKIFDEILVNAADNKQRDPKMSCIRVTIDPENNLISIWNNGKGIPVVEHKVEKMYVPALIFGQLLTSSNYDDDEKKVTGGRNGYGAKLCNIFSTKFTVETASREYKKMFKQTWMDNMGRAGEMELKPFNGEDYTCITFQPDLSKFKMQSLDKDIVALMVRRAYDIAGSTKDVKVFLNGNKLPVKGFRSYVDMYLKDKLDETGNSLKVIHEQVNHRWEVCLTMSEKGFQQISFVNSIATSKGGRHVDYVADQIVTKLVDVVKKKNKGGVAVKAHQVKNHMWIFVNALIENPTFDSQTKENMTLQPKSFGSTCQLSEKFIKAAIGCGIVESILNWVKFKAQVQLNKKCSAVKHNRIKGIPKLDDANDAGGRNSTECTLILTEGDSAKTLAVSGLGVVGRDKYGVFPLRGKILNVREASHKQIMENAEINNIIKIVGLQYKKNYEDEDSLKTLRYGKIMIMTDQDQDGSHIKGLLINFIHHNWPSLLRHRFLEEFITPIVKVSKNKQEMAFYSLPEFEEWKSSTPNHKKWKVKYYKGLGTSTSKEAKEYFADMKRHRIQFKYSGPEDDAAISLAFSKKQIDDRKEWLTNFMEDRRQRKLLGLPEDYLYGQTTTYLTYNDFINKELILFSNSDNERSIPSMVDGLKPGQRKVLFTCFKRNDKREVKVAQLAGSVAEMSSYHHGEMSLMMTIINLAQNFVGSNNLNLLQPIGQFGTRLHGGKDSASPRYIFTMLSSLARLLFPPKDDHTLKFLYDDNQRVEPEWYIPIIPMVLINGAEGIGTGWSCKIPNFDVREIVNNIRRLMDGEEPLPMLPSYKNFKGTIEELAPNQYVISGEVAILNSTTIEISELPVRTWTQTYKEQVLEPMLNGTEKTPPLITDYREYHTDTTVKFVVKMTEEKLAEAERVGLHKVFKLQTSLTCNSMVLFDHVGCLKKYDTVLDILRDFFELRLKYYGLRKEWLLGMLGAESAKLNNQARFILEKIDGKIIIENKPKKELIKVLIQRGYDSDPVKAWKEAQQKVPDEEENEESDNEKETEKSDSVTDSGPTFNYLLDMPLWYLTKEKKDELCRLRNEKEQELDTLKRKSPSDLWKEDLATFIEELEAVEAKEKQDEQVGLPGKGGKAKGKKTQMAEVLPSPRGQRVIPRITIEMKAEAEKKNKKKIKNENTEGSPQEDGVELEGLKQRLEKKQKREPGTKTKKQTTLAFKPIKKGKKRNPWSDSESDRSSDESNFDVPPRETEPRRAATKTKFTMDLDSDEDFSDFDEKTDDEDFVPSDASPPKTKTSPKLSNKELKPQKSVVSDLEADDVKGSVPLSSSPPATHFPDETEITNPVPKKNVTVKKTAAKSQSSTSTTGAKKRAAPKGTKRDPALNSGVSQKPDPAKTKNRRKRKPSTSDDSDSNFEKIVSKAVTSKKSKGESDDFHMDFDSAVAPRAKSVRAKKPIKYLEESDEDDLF
UniProt O75751, sequence (whole entry, looked up): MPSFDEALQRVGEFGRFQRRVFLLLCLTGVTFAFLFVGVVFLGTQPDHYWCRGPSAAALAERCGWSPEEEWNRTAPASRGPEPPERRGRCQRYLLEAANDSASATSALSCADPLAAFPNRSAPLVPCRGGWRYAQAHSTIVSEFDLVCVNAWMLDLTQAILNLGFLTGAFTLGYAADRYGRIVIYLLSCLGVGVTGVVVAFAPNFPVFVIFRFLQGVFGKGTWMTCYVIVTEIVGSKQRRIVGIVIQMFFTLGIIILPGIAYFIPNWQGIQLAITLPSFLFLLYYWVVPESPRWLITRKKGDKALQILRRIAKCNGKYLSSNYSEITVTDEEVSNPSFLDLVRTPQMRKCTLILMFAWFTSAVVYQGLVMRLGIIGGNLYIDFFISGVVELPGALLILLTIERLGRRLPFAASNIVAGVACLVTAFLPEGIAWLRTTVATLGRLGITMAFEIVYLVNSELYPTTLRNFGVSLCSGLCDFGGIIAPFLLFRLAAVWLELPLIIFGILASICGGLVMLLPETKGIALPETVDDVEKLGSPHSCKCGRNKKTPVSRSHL

| Structure (SMILES) | target | assay | test system | conditions | how to read | quantity | value |
| --- | --- | --- | --- | --- | --- | --- | --- |
| [N-]=[N+]=NCC(=O)N[C@H]1[C@H]([C@H](O)[C@H](O)CO)O[C@@](OC[C@H]2O[C@@H](Oc3ccc([N+](=O)[O-])cc3)[C@H](O)[C@@H](O)[C@H]2O)(C(=O)O)C[C@@H]1O | Sialidase-2 (Homo sapiens, UniProt Q9Y3R4) | substrate |  | 10 min, pH 5.0, 37 °C |  | Vmax | 0.00087 ± 0.00012 mM/s |
| O=S(=O)([O-])[O-].[Mn+2] | alternative ancestral dye-decolorizing peroxidase | peroxidase activity, substrate, steady-state kinetics |  | 25 °C, pH 3 ABTS, 4 others |  | kcat | 0.3 s⁻¹ |
| CCCCC[C@H](O)/C=C/[C@H]1[C@H](O)CC(=O)[C@@H]1C/C=C\CCCC(=O)O | Prostaglandin E2 receptor EP1 subtype (PTGER1, Homo sapiens, UniProt P34995, S341A) | IP1 accumulation, agonist | AD293 | 1 h, EP1 S341A mutant |  | Emax | 91.4 ± 6.89% |
| NCCCS(=O)(=O)O | Sodium- and chloride-dependent taurine transporter (SLC6A6, Homo sapiens, UniProt P31641, Y138A) | binding, microscale thermophoresis |  | 31.3 µM, room temperature, with: 50 nM labelled protein | higher = more binding | normalised MST signal | 0.263 |
| O=C(O[C@@H]1Cc2c(O)cc(O)cc2O[C@@H]1c1cc(O)c(O)c(O)c1)c1cc(O)c(O)c(O)c1 | Amyloid-beta precursor protein (APP, Homo sapiens, UniProt P05067) | binding, 1H NMR titration |  | fivefold excess, 4 °C, amyloid-beta 10 µM |  | monomer signal loss | ≤ 31% |
| O=c1nc(SCc2ccc(C(F)(F)F)cc2)nc(SCc2csc3ccc(Cl)cc23)[nH]1 | DNA topoisomerase 2-alpha (TOP2A, Homo sapiens, UniProt P11388) | DNA relaxation |  | 31.25 µM, replicate 1 |  | relaxed DNA | 0% |
| CC[C@H](C)[C@H](NC(=O)[C@H](Cc1ccccc1)NC(=O)[C@H](CCC(=O)O)NC(=O)[C@H](CCCNC(=N)N)NC(=O)[C@H](C)NC(=O)[C@H](C)NC(=O)[C@H](CCC(N)=O)NC(=O)[C@H](CCC(=O)O)NC(=O)[C@H](CCC(=O)O)NC(=O)[C@H](CC(C)C)NC(=O)[C@H](Cc1ccc(O)cc1)NC(=O)[C@H](CO)NC(=O)[C@H](CO)NC(=O)[C@@H](NC(=O)[C@H](CC(=O)O)NC(=O)[C@H](CO)NC(=O)[C@@H](NC(=O)[C@H](Cc1ccccc1)NC(=O)[C@@H](NC(=O)CNC(=O)[C@H](CCC(=O)O)NC(=O)[C@H](C)NC(=O)CCc1cnc[nH]1)[C@@H](C)O)[C@@H](C)O)C(C)C)C(=O)N[C@@H](C)C(=O)N[C@@H](Cc1c[nH]c2ccccc12)C(=O)N[C@@H](CC(C)C)C(=O)N[C@H](C(=O)N[C@@H](CCCCNc1c(NCCCCCN(O)C(=O)CCC(=O)NCCCCCN(O)C(=O)CCC(=O)NCCCCCN(O)C(C)=O)c(=O)c1=O)C(=O)NCC(=O)N[C@@H](CCCNC(=N)N)C(=O)N[C@@H](CCCCNc1c(NCCCCCN(O)C(=O)CCC(=O)NCCCCCN(O)C(=O)CCC(=O)NCCCCCN(O)C(C)=O)c(=O)c1=O)C(=O)NCC(=O)NCC(=O)N[C@@H](CO)C(=O)N[C@@H](CCCCNC(=O)COCCOCCNC(=O)COCCOCCNC(=O)CC[C@H](NC(=O)CCCCCCCCCCCCCCCCC(=O)O)C(=O)O)C(=O)O)C(C)C | GLP1R | agonist, CRE luciferase reporter | BHK cells | Zr-loaded DFO conjugate, with: 0% HSA | relative to: parent peptide | fold potency loss | 3.6 |
| CCC1(O)CCCN(C(=O)c2ccc(-c3ccc(F)c(NC(=O)CCl)c3)cc2)C1 (centres unmarked) | DNA dC->dU-editing enzyme APOBEC-3A (Homo sapiens, UniProt P31941) | covalent modifier, intact protein mass spectrometry, measured: adduct +26691 Da |  | 25 µM, 1 h, 1-fold molar excess |  | protein adduct | 0% |
| CC[C@H](C)[C@@H]1NC(=O)[C@H](CCCNC(=N)N)NC(=O)[C@@H]2CCCN2C(=O)[C@H](Cc2ccccc2)NC(=O)[C@H]([C@@H](C)O)NC(=O)CNC(=O)[C@H](CC(C)C)NC(=O)[C@@H]2CCCN2C(=O)[C@H]([C@@H](C)O)NC(=O)[C@H](Cc2c[nH]c3ccccc23)NC(=O)[C@H](Cc2ccc(O)cc2)NC(=O)[C@H]([C@@H](C)CC)NC(=O)[C@H]([C@@H](C)O)NC(=O)[C@H]([C@@H](C)O)NC(=O)[C@@H](Cc2ccc(O)cc2)NC(=O)CSC[C@@H](C(N)=O)NC(=O)[C@H](CCCNC(=N)N)NC1=O | Vacuolar protein sorting-associated protein 29 (VPS29, Homo sapiens, UniProt Q9UBQ0) | binding, ITC |  | 25 °C, protein alone |  | -TΔS | 7.11 ± 0.418 kJ/mol |
| CC1(C)CC2(C)OC(=O)NC2(C)c2ccccc21 (centres unmarked) | Transcription intermediary factor 1-alpha, PHD-bromodomain (TRIM24, Homo sapiens, UniProt O15164) | binding, affinity selection mass spectrometry |  |  | relative to: other proteins in batch | log fold enrichment | -0.103 |
| O=C(COP(=O)(O)O)[C@@H](O)[C@H](O)[C@H](O)COP(=O)(O)O | Actin, alpha skeletal muscle (ACTA1, Homo sapiens, UniProt P68133) | thermal proteome profiling, measured: ACTA1 | HepG2 cell lysate | concentration not given, 57 over 37 °C, mean | relative to: compound over control | thermal stability ratio | 0.639 |
| Cc1ccccc1Nc1c(-c2ccco2)nc2c(C(F)F)cccn12 | Excitatory amino acid transporter 1 (SLC1A3, Homo sapiens, UniProt P43003) | glutamate uptake, impedance | HEK293 |  | relative to: SLC1A1 over SLC1A3 | selectivity ratio | > 100 fold |
| COc1cc(Nc2ncc3c(n2)-c2ccc(Cl)cc2C(c2c(F)cccc2OC)=NC3)ccc1C(=O)O | ADRBK2 | kinase activity |  | 1 µM |  | remaining activity | 105% |
| Nc1ccc(C(=O)O)cc1 | BEST1, with wild-type BEST1 (Homo sapiens, UniProt O76090, L234P) | ion current, whole-cell patch clamp | HEK293 co-expressing mutant and wild-type | concentration not given, voltage 40 mV |  | current density | 11.7 pA/pF and 5.93 pA/pF and 8.41 pA/pF and 21.5 pA/pF and 6.79 pA/pF and 3.65 pA/pF |
| C[C@@H]1CCO[C@H]2Cn3cc(C(=O)NCc4ccc(F)cc4F)c(=O)c(O)c3C(=O)N12 | Solute carrier family 22 member 3 (SLC22A3, Homo sapiens, UniProt O75751) | transporter uptake, inhibitor, measured: [14C]MPP+ uptake | MDCK-II transfected with OCT3 | up to 100 µM, with: [14C]MPP+ 2 µM |  | inhibition | no inhibition |
| Nc1ncnc2c1ncn2[C@@H]1O[C@H](CO[P@](=O)(O)O[P@](=O)(O)O[P@@](=O)(O)S)[C@@H](O)[C@H]1O | GUK1 (Homo sapiens, UniProt Q16774) | ITC |  | concentration not given, with: ADP |  | ΔH of binding | -17.3 kJ/mol and -15.8 kJ/mol and -16.1 kJ/mol |
| Oc1ccc(/C=C/c2cc(O)cc(O)c2)cc1 | O-methyltransferase (Sorghum bicolor, UniProt A0A1B6PFV1) | ITC |  | endothermic site, two-site model, with: SFG |  | ∆G | -34.8 kJ/mol |
| Cc1ncsc1-c1ccc([C@H](C)NC(=O)[C@@H]2C[C@@H](O)CN2C(=O)[C@@H](NC(=O)CCCCCC(=O)N2CCC3(CC2)CCN(c2cncc(Nc4ncc(Cl)c(-c5cccc(-c6ccccc6)c5)n4)c2)C3=O)C(C)(C)C)cc1 | PIP4K2C | degrader, immunoblot | MOLT-4 | 1 µM, 6 h |  | Dmax | 91% |
| CCN1CCC[C@H]1CNC(=O)c1c(O)c(Cl)cc(Cl)c1OC | Probable G-protein coupled receptor 149 (GPR149, Homo sapiens, UniProt Q86SP6) | β-arrestin recruitment, TANGO luminescence, measured: GPR149 |  | concentration not given | relative to: basal luminescence | log2 fold change | 0.303 |
| CN(CCOc1ccc(CC2SC(=O)NC2=O)cc1)c1ccccn1 (centres unmarked) | Peroxisome proliferator-activated receptor alpha (Ppara, Mus musculus, UniProt P23204, F272I) | intrinsic fluorescence quenching |  | concentration not given |  | binding | no binding |
| CC[C@H](C)[C@H](NC(=O)[C@H](Cc1ccccc1)NC(=O)[C@H](CCC(=O)O)NC(=O)[C@H](CCCNC(=N)N)NC(=O)[C@H](C)NC(=O)[C@H](C)NC(=O)[C@H](CCC(N)=O)NC(=O)[C@H](CCC(=O)O)NC(=O)[C@H](CCC(=O)O)NC(=O)[C@H](CC(C)C)NC(=O)[C@H](Cc1ccc(O)cc1)NC(=O)[C@H](CO)NC(=O)[C@H](CO)NC(=O)[C@@H](NC(=O)[C@H](CC(=O)O)NC(=O)[C@H](CO)NC(=O)[C@@H](NC(=O)[C@H](Cc1ccccc1)NC(=O)[C@@H](NC(=O)CNC(=O)[C@H](CCC(=O)O)NC(=O)[C@H](C)NC(=O)CCc1cnc[nH]1)[C@@H](C)O)[C@@H](C)O)C(C)C)C(=O)N[C@@H](C)C(=O)N[C@@H](Cc1c[nH]c2ccccc12)C(=O)N[C@@H](CC(C)C)C(=O)N[C@H](C(=O)N[C@@H](CCCCNC(=O)COCCOCCNC(=O)COCCOCCNC(=O)CC[C@H](NC(=O)CCCCCCCCCCCCCCCCC(=O)O)C(=O)O)C(=O)NCC(=O)N[C@@H](CCCNC(=N)N)C(=O)N[C@@H](CCCCNc1c(NCCCCCN(O)C(=O)CCC(=O)NCCCCCN(O)C(=O)CCC(=O)NCCCCCN(O)C(C)=O)c(=O)c1=O)C(=O)NCC(=O)NCC(=O)N[C@@H](CO)C(=O)N[C@@H](CCCCNc1c(NCCCCCN(O)C(=O)CCC(=O)NCCCCCN(O)C(=O)CCC(=O)NCCCCCN(O)C(C)=O)c(=O)c1=O)C(=O)NCC(=O)NCC(=O)N[C@@H](CO)C(=O)N[C@@H](CCCCNc1c(NCCCCCN(O)C(=O)CCC(=O)NCCCCCN(O)C(=O)CCC(=O)NCCCCCN(O)C(C)=O)c(=O)c1=O)C(=O)O)C(C)C | GLP1R | agonist, CRE luciferase reporter | BHK cells | Zr-loaded DFO conjugate, with: 0% HSA | relative to: parent peptide | fold potency loss | 2.9 |
| Nc1ncc2c(n1)-c1c([nH]c3ccc(-c4ccc(F)cc4)cc13)CCC2 | PIP4K2C | DiscoverX scanMAX |  | 1 µM | relative to: untreated control | remaining binding | 15% |
| Cc1nc2[nH]c(=O)n(O)c(=O)c2s1 | Ketol-acid reductoisomerase (NADP(+)) (ilvC, Campylobacter jejuni subsp. jejuni serotype O:2, UniProt Q9PHN5) | slow-binding inhibitor | Campylobacter jejuni |  |  | kon | 3630 M⁻¹ s⁻¹ |
| COc1cc(F)ccc1-c1ncnc(Nc2cccc(C[S@](C)(=N)=O)c2)n1 | Maternal embryonic leucine zipper kinase (MELK, Homo sapiens, UniProt Q14680) | kinase activity |  | 10 µM, with: 10 µM ATP |  | remaining activity | 82% |
| CC[C@H](C)[C@H](NC(=O)[C@H](Cc1ccccc1)NC(=O)[C@H](CCC(=O)O)NC(=O)[C@H](CCCNC(=N)N)NC(=O)[C@H](C)NC(=O)[C@H](C)NC(=O)[C@H](CCC(N)=O)NC(=O)[C@H](CCCCNc1c(NCCCCCN(O)C(=O)CCC(=O)NCCCCCN(O)C(=O)CCC(=O)NCCCCCN(O)C(C)=O)c(=O)c1=O)NC(=O)[C@H](CCC(=O)O)NC(=O)[C@H](CC(C)C)NC(=O)[C@H](Cc1ccc(O)cc1)NC(=O)[C@H](CO)NC(=O)[C@H](CO)NC(=O)[C@@H](NC(=O)[C@H](CC(=O)O)NC(=O)[C@H](CO)NC(=O)[C@@H](NC(=O)[C@H](Cc1ccccc1)NC(=O)[C@@H](NC(=O)CNC(=O)[C@H](CCC(=O)O)NC(=O)[C@H](C)NC(=O)CCc1cnc[nH]1)[C@@H](C)O)[C@@H](C)O)C(C)C)C(=O)N[C@@H](C)C(=O)N[C@@H](Cc1c[nH]c2ccccc12)C(=O)N[C@@H](CC(C)C)C(=O)N[C@H](C(=O)N[C@@H](CCCCNc1c(NCCCCCN(O)C(=O)CCC(=O)NCCCCCN(O)C(=O)CCC(=O)NCCCCCN(O)C(C)=O)c(=O)c1=O)C(=O)NCC(=O)N[C@@H](CCCNC(=N)N)C(=O)N[C@@H](CCCCNC(=O)COCCOCCNC(=O)COCCOCCNC(=O)CC[C@H](NC(=O)CCCCCCCCCCCCCCCCC(=O)O)C(=O)O)C(=O)O)C(C)C | GLP1R | agonist, CRE luciferase reporter | BHK cells | Zr-loaded DFO conjugate, with: 0% HSA | relative to: parent peptide | fold potency loss | 5.8 |
| CC1(C)CN(CCCCC(=O)N[C@@H](CCCCNC(=O)CCCCCCC(=O)NCCCC[C@H](NC(=O)N[C@@H](CCC(=O)O)C(=O)O)C(=O)O)C(=O)O)CC[N]2CC(C)(C)[S][Tc]2(=[O])[S]1 (some centres unmarked) [technetium-99m labelled] | Glutamate carboxypeptidase 2 (FOLH1, Homo sapiens, UniProt Q04609) | radioligand, saturation binding | LNCaP | 1 h, 37 °C, with: [99mTc]TcO-6 |  | Bmax | 9 ± 1.5 pmol/mg |
